Assay results gathered from unrelated publications.
Protocols differ between the studies behind these lines. “And” joins repeats or separate records; there may be more than shown. Numbers after ± are the reported error.
UniProt P49760, sequence (whole entry, looked up): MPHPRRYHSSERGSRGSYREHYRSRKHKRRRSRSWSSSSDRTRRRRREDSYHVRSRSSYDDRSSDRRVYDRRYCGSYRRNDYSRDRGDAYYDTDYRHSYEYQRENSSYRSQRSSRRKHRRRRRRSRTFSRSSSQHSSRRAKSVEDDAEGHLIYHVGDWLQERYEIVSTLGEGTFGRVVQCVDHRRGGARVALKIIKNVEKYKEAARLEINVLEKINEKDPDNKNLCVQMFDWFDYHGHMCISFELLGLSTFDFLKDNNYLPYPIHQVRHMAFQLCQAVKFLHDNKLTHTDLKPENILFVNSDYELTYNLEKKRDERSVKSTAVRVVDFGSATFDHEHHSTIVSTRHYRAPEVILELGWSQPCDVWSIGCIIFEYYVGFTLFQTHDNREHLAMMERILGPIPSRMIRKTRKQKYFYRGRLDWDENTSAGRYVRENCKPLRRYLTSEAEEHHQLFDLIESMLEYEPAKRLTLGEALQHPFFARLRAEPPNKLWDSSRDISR
UniProt P29322, sequence (whole entry, looked up): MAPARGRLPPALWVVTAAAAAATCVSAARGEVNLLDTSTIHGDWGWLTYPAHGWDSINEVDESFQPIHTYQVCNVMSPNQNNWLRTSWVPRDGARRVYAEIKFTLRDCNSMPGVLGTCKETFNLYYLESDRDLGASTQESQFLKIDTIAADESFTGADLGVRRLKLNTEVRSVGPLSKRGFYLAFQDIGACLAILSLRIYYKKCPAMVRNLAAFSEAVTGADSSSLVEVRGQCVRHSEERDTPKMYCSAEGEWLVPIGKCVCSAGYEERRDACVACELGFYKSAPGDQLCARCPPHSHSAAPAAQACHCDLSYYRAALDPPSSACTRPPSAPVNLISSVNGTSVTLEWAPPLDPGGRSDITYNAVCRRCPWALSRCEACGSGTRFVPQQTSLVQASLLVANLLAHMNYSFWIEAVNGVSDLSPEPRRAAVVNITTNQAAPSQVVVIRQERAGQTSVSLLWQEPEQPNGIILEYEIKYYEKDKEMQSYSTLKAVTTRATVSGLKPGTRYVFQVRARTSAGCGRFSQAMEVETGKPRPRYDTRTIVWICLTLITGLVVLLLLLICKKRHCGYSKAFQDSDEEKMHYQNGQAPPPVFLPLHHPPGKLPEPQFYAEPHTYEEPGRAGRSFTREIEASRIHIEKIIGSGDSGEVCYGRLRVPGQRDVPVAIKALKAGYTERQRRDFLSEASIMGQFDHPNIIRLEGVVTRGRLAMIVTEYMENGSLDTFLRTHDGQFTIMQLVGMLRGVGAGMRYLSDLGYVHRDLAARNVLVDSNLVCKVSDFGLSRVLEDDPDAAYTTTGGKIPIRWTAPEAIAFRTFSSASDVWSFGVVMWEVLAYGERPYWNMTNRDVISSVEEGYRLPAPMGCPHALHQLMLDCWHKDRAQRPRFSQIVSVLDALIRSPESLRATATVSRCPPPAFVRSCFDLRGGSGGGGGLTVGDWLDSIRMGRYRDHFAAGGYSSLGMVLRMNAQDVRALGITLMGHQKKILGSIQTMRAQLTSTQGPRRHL
UniProt P30530, sequence (whole entry, looked up): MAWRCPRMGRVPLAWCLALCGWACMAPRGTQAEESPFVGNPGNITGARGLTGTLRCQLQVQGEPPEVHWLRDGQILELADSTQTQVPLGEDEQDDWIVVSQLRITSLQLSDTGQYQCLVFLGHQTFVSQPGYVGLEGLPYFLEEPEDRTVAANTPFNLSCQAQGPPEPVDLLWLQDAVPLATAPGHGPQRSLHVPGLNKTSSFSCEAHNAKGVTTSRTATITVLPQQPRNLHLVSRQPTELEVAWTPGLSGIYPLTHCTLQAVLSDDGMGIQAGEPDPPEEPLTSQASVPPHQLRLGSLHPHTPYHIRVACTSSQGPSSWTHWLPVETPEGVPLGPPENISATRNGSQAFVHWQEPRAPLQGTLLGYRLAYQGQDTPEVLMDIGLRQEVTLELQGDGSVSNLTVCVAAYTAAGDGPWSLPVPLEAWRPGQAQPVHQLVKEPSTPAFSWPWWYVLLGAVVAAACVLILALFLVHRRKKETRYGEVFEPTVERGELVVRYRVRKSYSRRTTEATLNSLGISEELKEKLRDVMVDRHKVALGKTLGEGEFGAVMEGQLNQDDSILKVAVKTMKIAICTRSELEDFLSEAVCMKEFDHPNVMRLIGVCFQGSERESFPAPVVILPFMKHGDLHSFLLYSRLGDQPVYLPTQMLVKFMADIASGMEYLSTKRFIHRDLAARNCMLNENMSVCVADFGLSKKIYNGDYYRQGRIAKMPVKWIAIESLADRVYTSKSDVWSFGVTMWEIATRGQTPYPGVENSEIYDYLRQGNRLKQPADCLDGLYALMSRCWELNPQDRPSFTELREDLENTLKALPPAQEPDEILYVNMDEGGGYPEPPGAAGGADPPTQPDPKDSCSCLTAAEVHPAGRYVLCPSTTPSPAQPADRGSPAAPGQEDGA
UniProt P10721, sequence (whole entry, unmodified, looked up): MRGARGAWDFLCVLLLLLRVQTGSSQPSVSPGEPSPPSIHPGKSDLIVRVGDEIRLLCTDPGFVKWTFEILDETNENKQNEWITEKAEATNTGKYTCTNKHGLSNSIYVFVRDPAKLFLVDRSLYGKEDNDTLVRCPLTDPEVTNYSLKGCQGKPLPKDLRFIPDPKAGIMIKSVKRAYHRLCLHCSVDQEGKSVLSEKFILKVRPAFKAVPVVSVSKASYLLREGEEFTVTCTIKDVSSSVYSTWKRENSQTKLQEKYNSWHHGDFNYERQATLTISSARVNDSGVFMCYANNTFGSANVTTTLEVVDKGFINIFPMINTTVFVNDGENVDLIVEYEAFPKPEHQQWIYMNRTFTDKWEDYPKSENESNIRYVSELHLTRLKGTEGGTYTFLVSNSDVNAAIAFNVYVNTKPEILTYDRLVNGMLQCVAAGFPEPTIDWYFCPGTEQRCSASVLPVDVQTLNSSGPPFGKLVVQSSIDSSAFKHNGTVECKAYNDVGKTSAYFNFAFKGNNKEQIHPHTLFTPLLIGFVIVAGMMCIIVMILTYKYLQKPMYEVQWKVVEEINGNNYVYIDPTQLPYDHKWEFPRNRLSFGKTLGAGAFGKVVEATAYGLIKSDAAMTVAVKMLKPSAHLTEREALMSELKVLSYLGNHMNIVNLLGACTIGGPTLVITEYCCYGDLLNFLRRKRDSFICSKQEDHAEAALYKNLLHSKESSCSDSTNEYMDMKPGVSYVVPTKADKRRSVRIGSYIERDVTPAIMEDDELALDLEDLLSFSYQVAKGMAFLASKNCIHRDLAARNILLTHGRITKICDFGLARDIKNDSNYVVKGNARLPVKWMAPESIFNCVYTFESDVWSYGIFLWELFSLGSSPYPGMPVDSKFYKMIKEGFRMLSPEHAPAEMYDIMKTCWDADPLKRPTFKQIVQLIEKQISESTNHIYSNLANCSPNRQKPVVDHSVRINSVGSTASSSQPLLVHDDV

Compound	tested on	assay	test system	conditions	scale	quantity	value
CC[C@H](C)[C@H](NC(=O)[C@H](CO)NC(=O)[C@H](Cc1ccc(O)cc1)NC(=O)[C@H](Cc1ccc(O)cc1)NC(=O)[C@H](CC(N)=O)NC(=O)CNC(=O)[C@H](CO)NC(=O)[C@H](Cc1ccc(O)cc1)NC(=O)[C@H](CO)NC(=O)[C@H](CO)NC(=O)[C@H](CC(N)=O)NC(=O)COCCOCCNC(=O)CN1CCN(CC(=O)O)CCN(CC(=O)O)CCN(CC(=O)O)CC1)C(=O)N[C@@H](CC(C)C)C(N)=O [copper-64 labelled]	–	dynamic PET	tamoxifen-induced PDAC mouse model, pancreas	0.6 min, CLDN4-expressing tumours	–	maximum pancreas uptake	17.3 %IA/cc
C[C@H](O)[C@@H](NC(=O)[C@H]1CCCN1C(=O)[C@@H](CCCCN)NC(=O)[C@@H](CO)NC(=O)[C@@H](Cc1ccc(O)cc1)NC(=O)[C@@H](CC(N)=O)NC(=O)CCOCCOCCOCCNC(=O)CN1CCN(CC(=O)O)CCN(CC(=O)O)CCN(CC(=O)O)CC1)C(=O)N[C@H](CC(=O)O)C(=O)N[C@H](CCCNC(=N)N)C(=O)N[C@H](CCC(N)=O)C(=O)N[C@H](Cc1ccc(O)cc1)C(=O)N[C@H](Cc1c[nH]cn1)C(=O)N[C@H](Cc1ccccc1)C(N)=O [gallium-68 labelled]	–	–	BALB/c nude mice U-87 MG tumour, tumor	intravenous, 1.85 MBq, 1 h, radiolabelled	–	tissue uptake	2.99 ± 0.03 %ID/g
CC(C)(C)C(=O)OCOP(=O)(OCOC(=O)C(C)(C)C)C1CCCN(O)C1=O (stereo not drawn)	CCRF-CEM	–	–	–	–	Log10GI50	-6.73 log M
CC(C)(CCCC/C=C/CCCCCC(C)(C)C(=O)O)C(=O)O	–	–	beagle dog, both sexes	oral, dose not given, 5 h	–	plasma concentration	14000 ng/mL
COc1nc(CC=C(C)CC=CC(C)=CC(C)C(OC2OC(CO)C(O)C(O)C2O)C(C)=CCO)c(C)c(O)c1OC (stereo not drawn)	–	glucuronidation, substrate	human liver microsomes	15 min, pH 7.4	–	Km	39.05 ± 0.36 µM
CC(C)N1CCCCC1C(=O)NC(Cc1ccc(-c2ccccc2)cc1)B(O)O (stereo not drawn)	–	–	Caco-2	–	–	Papp B→A	25 ×10⁻⁶ cm/s
CC(C)C[C@@H](NC(=O)[C@@H](CCCNC(=N)N)NC(=O)[C@@H](Cc1c[nH]cn1)NC(=O)[C@@H](Cc1c[nH]c2ccccc12)NC(=O)[C@@H](Cc1c[nH]cn1)NC(=O)[C@@H](Cc1ccccc1)NC(=O)[C@H](NC(=O)[C@@H](Cc1ccc(O)cc1)NC(=O)CNC(=O)CNC(=O)CCOCCOCCOCCNC(=O)CN1CCN(CC(=O)O)CCN(CC(=O)O)CC1)[C@H](C)O)C(=O)N[C@H](CC(N)=O)C(=O)N1CCC[C@@H]1C(=O)O [gallium-68 labelled]	–	OLINDA/EXM	adult male human, ULI wall	extrapolated from C57BL/6 mice	–	organ absorbed dose	0.011 ± 0.000361 mSv/MBq
CC(C)[C@H]1NC(=O)C[C@H]2/C=C/CCSSC[C@@H](NC1=O)C(=O)N[C@H](Cc1cccc3ccccc13)C(=O)NCC(=O)O2	KIT (Homo sapiens, UniProt P10721, T670I)	enzyme activity, inhibitor	–	10 µM	–	inhibition	-6.8%
CS(C)(=O)=Nc1ccc(-c2ccc(-c3nc4cc(O[C@@H]5CO[C@H]6[C@@H]5OC[C@H]6O)[nH]c4cc3F)cc2)cc1	AXL (Homo sapiens, UniProt P30530)	enzyme activity, inhibitor	–	10 µM	–	inhibition	-3%
CC[C@H](C)[C@H](NC(=O)[C@H](CCCCN)NC(=O)CNC(=O)[C@H](CC(C)C)NC(=O)[C@H](Cc1ccccc1)NC(=O)[C@H](CCCCN)NC(=O)[C@H](CO)NC(=O)[C@H](Cc1ccccc1)NC(=O)[C@H](Cc1c[nH]c2ccccc12)NC(=O)[C@H](CCC(N)=O)NC(=O)[C@@H](NC(=O)[C@H](Cc1ccccc1)NC(=O)CCCCCNC(=O)CN1CCN(CC(=O)O)CCN(CC(=O)O)CCN(CC(=O)O)CC1)C(C)C)C(=O)N[C@@H](CCC(=O)O)C(=O)N1CCC[C@H]1C(=O)N[C@@H](CC(=O)O)C(=O)N[C@H](C(=O)N[C@@H](CO)C(=O)N[C@@H](CCC(N)=O)C(=O)N[C@H](C(=O)N[C@@H](CCC(N)=O)C(=O)N[C@@H](CC(=O)O)C(=O)N1CCC[C@H]1C(=O)N[C@@H](CC(N)=O)C(=O)N[C@@H](CC(=O)O)C(=O)N[C@@H](CCC(N)=O)C(=O)N[C@@H](Cc1ccc(O)cc1)C(=O)N[C@@H](CCC(=O)O)C(=O)N1CCC[C@H]1C(=O)N[C@@H](Cc1ccccc1)C(=O)O)C(C)C)C(C)C [copper-64 labelled]	–	–	C57BL/6 mice, male, tumour-free, heart	0.5 h	–	tissue uptake	3.07 ± 0.3 %ID/g
O=C1NC2(CC2)COc2ncc(F)cc2[C@H]2COCCN2c2ccn3ncc1c3n2	–	–	Sprague-Dawley rat, female, thymus	oral, 20 mg/kg/day, 4 weeks dosing, end of recovery	–	organ-to-brain weight ratio	16.8 ± 4.89%
CC(C(=O)O)n1nc(Cn2cc3cc(OCC[18F])c(Cl)cc3n2)c2ccccc2c1=O (racemic)	–	HPLC	nonhuman primate, plasma	120 min post-injection	reference: plasma radioactivity	parent radiotracer	78%
CC(C)[C@@H]1NC(=O)CNC(=O)[C@H](CC(N)=O)NC(=O)[C@H](CCCNC(=N)N)NC(=O)[C@H](Cc2ccc(O)cc2)NC(=O)[C@H](C(C)C)NC(=O)[C@@H](NC(=O)[C@@H](NC(=O)[C@H](CC(N)=O)NC(=O)[C@H](Cc2c[nH]c3ccccc23)NC(=O)[C@H](C)NC(=O)[C@H](Cc2ccccc2)NC(=O)CNC(=O)[C@H](CCCCN)NC(=O)[C@H](Cc2ccccc2)NC(=O)[C@H](Cc2ccccc2)NC(=O)[C@H](CCCCN)NC(=O)OCC2c3ccccc3-c3ccccc32)C(C)C)CSSC[C@@H](C(=O)N[C@@H](Cc2c[nH]cn2)C(=O)N[C@@H](CCCNC(=N)N)C(=O)N[C@@H](CCCNC(=N)N)C(=O)N[C@@H](C)C(=O)N[C@@H](CC(N)=O)C(N)=O)NC(=O)[C@H](C(C)C)NC(=O)[C@H](CCCNC(=N)N)NC1=O	–	HPLC	mouse kidney homogenate 50 mg/mL	6.00 h, 37 °C	–	peptide remaining	58.2% and 62.1% and 54.4%
CC(CCC(=O)NCC(=O)O)C1CCC2C3C(O)CC4CC(OC5OC(C(=O)O)C(O)C(O)C5O)CCC4(C)C3CCC12C (stereo not drawn)	–	–	women, T/T genotype, plasma	dose not given, geometric mean	–	plasma concentration	18.3 ng/mL
Cc1ccc(NS(=O)(=O)c2c(C(=O)N3CCCCCC3)c(C)n(C)c2C)c(Cl)c1	CV-1	–	African green monkey cells	100 µM, 60 (unit not given)	–	viability	102% and 94.2%
CSCC[C@H](N)C(=O)N[C@@H](C)C(=O)N[C@@H](Cc1c[nH]c2ccccc12)C(=O)N[C@@H](Cc1c[nH]cn1)C(=O)N[C@@H](CC(=O)O)C(=O)N[C@@H](CC(=O)O)C(=O)N[C@@H](CCC(=O)O)C(=O)N[C@@H](CCC(=O)O)C(=O)N[C@@H](Cc1ccccc1)C(=O)N[C@@H](C)C(=O)N[C@@H](CCCNC(=N)N)C(=O)N[C@@H](CCCNC(=N)N)C(=O)N[C@@H](CCCNC(=N)N)C(=O)N[C@@H](CCCNC(=N)N)C(=O)NCCCCCC(=O)NCCCCC(NC(=O)CCCCCNC(=O)[C@H](CCCNC(=N)N)NC(=O)[C@H](CCCNC(=N)N)NC(=O)[C@H](CCCNC(=N)N)NC(=O)[C@H](CCCNC(=N)N)NC(=O)[C@H](C)NC(=O)[C@H](Cc1ccccc1)NC(=O)[C@H](CCC(=O)O)NC(=O)[C@H](CCC(=O)O)NC(=O)[C@H](CC(=O)O)NC(=O)[C@H](CC(=O)O)NC(=O)[C@H](Cc1c[nH]cn1)NC(=O)[C@H](Cc1c[nH]c2ccccc12)NC(=O)[C@H](C)NC(=O)[C@@H](N)CCSC)C(=O)NCCCCC(NC(=O)C(CCCCNC(=O)CCCCCNC(=O)[C@H](CCCNC(=N)N)NC(=O)[C@H](CCCNC(=N)N)NC(=O)[C@H](CCCNC(=N)N)NC(=O)[C@H](CCCNC(=N)N)NC(=O)[C@H](C)NC(=O)[C@H](Cc1ccccc1)NC(=O)[C@H](CCC(=O)O)NC(=O)[C@H](CCC(=O)O)NC(=O)[C@H](CC(=O)O)NC(=O)[C@H](CC(=O)O)NC(=O)[C@H](Cc1c[nH]cn1)NC(=O)[C@H](Cc1c[nH]c2ccccc12)NC(=O)[C@H](C)NC(=O)[C@@H](N)CCSC)NC(=O)CCCCCNC(=O)[C@H](CCCNC(=N)N)NC(=O)[C@H](CCCNC(=N)N)NC(=O)[C@H](CCCNC(=N)N)NC(=O)[C@H](CCCNC(=N)N)NC(=O)[C@H](C)NC(=O)[C@H](Cc1ccccc1)NC(=O)[C@H](CCC(=O)O)NC(=O)[C@H](CCC(=O)O)NC(=O)[C@H](CC(=O)O)NC(=O)[C@H](CC(=O)O)NC(=O)[C@H](Cc1c[nH]cn1)NC(=O)[C@H](Cc1c[nH]c2ccccc12)NC(=O)[C@H](C)NC(=O)[C@@H](N)CCSC)C(N)=O (stereo partly drawn)	–	–	C57BL/6 mouse female, lungs	dose not given, 3 h	reference: total	mean tissue distribution	2.14%
C=CCN1CCC23c4c5ccc(OC(=O)c6ccc(N)cc6)c4OC2C(=O)CCC3(O)C1C5 (stereo not drawn)	–	–	human plasma	4 h	–	remaining compound	88.9% and 88.3% and 88.8%
CCc1nn(C)c2nc(-c3ccc(C(=O)O)cc3)nc(NCc3ccccc3)c12	–	–	male CD-1 mouse, plasma	oral, 10 mg/kg, 15 min	–	concentration	1260 ng/mL
CC(C)=CCC/C(C)=C/CCn1cc(CC(P(=O)(O)O)P(=O)(O)O)nn1	–	–	CD-1 mouse, plasma	intravenous, 0.5 mg/kg, single dose	–	AUC(0-t)	1380 ± 140 ng·h/mL
O=C1NC(=O)c2c1c1cc(F)c[n+]3c1c1c2c2cc(O)ccc2[n]1[Ru-4]312([N]=C=S)[S+]3CC[S+]1CC[S+]2CC3 (stereo not drawn)	EPHA8 (Homo sapiens, UniProt P29322)	enzyme activity	–	100 nM, human enzyme, together with: 10 µM ATP	reference: untreated	remaining activity	136%
CCCCC[C@H]1C(=O)N[C@H](C)C(=O)N(C)[C@@H](CCCCC)C(=O)N(C)[C@H](C)C(=O)N(C)[C@@H](CCCCC)C(=O)N[C@H](C)C(=O)N(C)[C@@H](CCCCC)C(=O)N(C)[C@H](C)C(=O)N1C	–	PAMPA	–	500 µM, pH 7.4	–	log Papp	2.45 ×10⁻⁶ cm/s
COc1ccccc1-c1n[nH]c2nc(NC3CCN(C(=O)Cc4ccc(F)cc4F)CC3)ncc12	–	bead binding, competition bead pull-down, item: LINJ.32.3470	Leishmania donovani axenic amastigote extract	10 µM	reference: vehicle	relative abundance	0.78
CN(C)[C@H]1C[C@@]23CC[C@@]4(O2)C(=CC[C@]2(C)[C@@H](c5ccc6ccncc6c5)CC[C@H]24)C=C3[C@@H](O)[C@@H]1O	CLK2 (Homo sapiens, UniProt P49760)	ATP probe labelling, inhibitor, KiNativ profiling	–	0.1 µM	–	inhibition	-2.9%
CN1Cc2cc(Cl)ccc2-n2c(nnc2C2CCN(c3cccc(F)n3)CC2)C1	–	–	Sprague-Dawley rats male, brainstem	intravenous, 0.03 mg/kg, 30 min	–	concentration	2.9 ± 0.31 ng/mL
Cc1nc2cccc(OCC(C)(C)C(=O)NC(C)C)c2c(N)c1C(=O)[O-].[Na+]	Salmonella typhimurium	Ames preincubation	TA1535	0.32 mg/plate, together with: with rat liver S9	–	revertant colonies	17 ± 3 colonies/plate
C=C1NC(=O)[C@H](CO)NC(=O)[C@H](CSCC(N)=O)NC(=O)CNC(=O)[C@H](Cc2ccc(O)cc2)NC(=O)[C@H](C)NC(=O)[C@H](CO)NC(=O)[C@H](CC(=O)O)NC(=O)CNC(=O)[C@H](CC(C)C)NC(=O)[C@H](Cc2c[nH]c3ccccc23)NC(=O)[C@H](Cc2c[nH]c3ccccc23)NC(=O)c2ccc(-c3nc(C(=O)OC)cs3)nc2-c2csc1n2	–	LC-MS	human serum	37 °C	–	t1/2	88 h
C(#Cc1cncc(OC[C@@H]2CCN2)c1)c1ccccc1	–	–	male Sprague-Dawley rat, plasma	oral, 75 mg/kg, 2 h	–	concentration	410 ng/mL

A few entries again:
Compound	tested on	assay	test system	conditions	scale	quantity	value
Cc1nc2cccc(OCC(C)(C)C(=O)NC(C)C)c2c(N)c1C(=O)[O-].[Na+]	Salmonella typhimurium	Ames preincubation	TA1535	0.32 mg/plate, together with: with rat liver S9	–	revertant colonies	17 ± 3 colonies/plate
CN(C)[C@H]1C[C@@]23CC[C@@]4(O2)C(=CC[C@]2(C)[C@@H](c5ccc6ccncc6c5)CC[C@H]24)C=C3[C@@H](O)[C@@H]1O	CLK2 (Homo sapiens, UniProt P49760)	ATP probe labelling, inhibitor, KiNativ profiling	–	0.1 µM	–	inhibition	-2.9%
CC(C)C[C@@H](NC(=O)[C@@H](CCCNC(=N)N)NC(=O)[C@@H](Cc1c[nH]cn1)NC(=O)[C@@H](Cc1c[nH]c2ccccc12)NC(=O)[C@@H](Cc1c[nH]cn1)NC(=O)[C@@H](Cc1ccccc1)NC(=O)[C@H](NC(=O)[C@@H](Cc1ccc(O)cc1)NC(=O)CNC(=O)CNC(=O)CCOCCOCCOCCNC(=O)CN1CCN(CC(=O)O)CCN(CC(=O)O)CC1)[C@H](C)O)C(=O)N[C@H](CC(N)=O)C(=O)N1CCC[C@@H]1C(=O)O [gallium-68 labelled]	–	OLINDA/EXM	adult male human, ULI wall	extrapolated from C57BL/6 mice	–	organ absorbed dose	0.011 ± 0.000361 mSv/MBq
